Published values gathered from unrelated publications.
Parts stem from different laboratories: compare values within a part only. Substitutions count along the parent as printed.

Series 1
Target: Fragile X messenger ribonucleoprotein 1, C-terminal low-complexity region (Fmr1, Mus musculus, UniProt P35922)
Method: RNA Bind-n-Seq
Form: RNA
Matrix: in vitro
Concentration: 200 nM
Setting: whole 134-nt RNA, ends assumed
With: 150 mM LiCl
Relative to: input library
Reading: higher = stronger binding
All molecules: 7-deaza-guanosine replaces G
Shared flanks, not repeated: GGGAGUUCUACAGUCCGACGAUC … UGGAAUUCUCGGGUGUCAAGG
Strand | log2 enrichment
GUCCUGUGCUACACAUCGUAUGUACCGAAUCGGGAAAGGGUUUUUGGGAAAAAAAGGGAAAGUAUUAUGUUACGCCGUUCGGAUCUGCAC | -1.08
GUCCUGUGCUACACAUCGUAUGUACCGAAUCGGGUUUUUUUGGGAGGGUUUUUUUGGGAAAGUAUUAUGUUACGCCGUUCGGAUCUGCAC | -0.418
UAACUUUAGAGGAGGAUCUGAUGGAUAUGGCAGUGGACGUGGAUUUGGGAAUGGCUAUAAUGGGUAUGGAGGAGGACCUGGAGGUGGCAA | -0.0131
UGGGAGGUUGAUUUUGUUUAUUUUUUUAGCUCAUUUCCAGGGGUGGGAAUUUUUUUUUAAUAUGUGUCAUGAAUAAAGUUGUUUUUGAAA | 0.352
AGUCCUGUGCUACACAUCGUAUGUACCGAAUCGGGGUGGGGUUUGGGGAAAAAGGGGAAAGUAUUAUGUUACGCCGUUCGGAUCUGCACU | -1.23
ACCAUGCAGGUGGGCAUCUUUGGGAAGUGGGGCAAGGGGGGGAUAGGGAGGAAAGUAACACUUUGGGAACAGGUGGUCCCAGGUCGUUUC | 0.122
UCAAGUCCUGUGCUACACAUCGUAUGUACCGAAUCGGCCGGGGCCGGGCCGGGGAAAGUAUUAUGUUACGCCGUUCGGAUCUGCACUUCC | -0.316
UGGGAGGUGGAUUUUGUUUAUUUUUUUAGCUCAUUUCCAGGGGUGGGAAUUUUUUUUUAAUAUAUGUCAUGAAUAAAGUUGUUUUUGAAA | 0.182
GUCCUGUGCUACACAUCGUAUGUACCGAAUCGGGAGGGUUUUUUUGGGAAAAAAAGGGAAAGUAUUAUGUUACGCCGUUCGGAUCUGCAC | -1.16
CACAGACAACACGCACCCACACAGACACAGAGGGAAGGGGCUGGGAUGGGGACAGGGUGCACAGCAGGGCGGGGUAGGACCCCAGCCCCU | 0.723
CCUGUGCUACACAUCGUAUGUACCGAAUCGGGCCCCCCGGGGCCCCCCGGGCCCCCCGGGAAAGUAUUAUGUUACGCCGUUCGGAUCUGC | -3.1

Series 2
Target: RNA binding protein fox-1 homolog 2, RRM domain, GST-SBP tag (RBFOX2, Homo sapiens, UniProt O43251-10, residues 100-194)
Method: RNA Bind-n-Seq
Form: RNA
Matrix: in vitro
Concentration: 365 nM
Setting: natural RNA segment, single round, ends assumed
Relative to: no-protein control
Reading: higher = stronger binding
Shared flanks, not repeated: GGGAGUUCUACAGUCCGACGAUC … UGGAAUUCUCGGGUGCCAA
Target sequence (chain): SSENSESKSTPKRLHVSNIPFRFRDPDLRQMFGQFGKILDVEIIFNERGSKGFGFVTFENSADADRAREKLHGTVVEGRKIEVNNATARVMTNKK
Strand | RBNS enrichment (R)
GCAGCGCGGCUGUGCUGUGCUGGGGAGGCAGCCGUUCCUUCGGGGGUCCUUGGGCCUGCAGUCCCCUCAUACUCACCCUUCACCCAACAUAUUUUCCGGUGCUGAUAUGU | 0.224
UUGCAGUUAAUUCCUGCUGCGCUGCCCACAGUGGCUUCCUCCCUUCAGUUUGUCCCUGAGACCCCUGAGUGGCCUUUGCUUCUCCAGGGUACUGGGUUGAAGAUCCAGCC | 0.231
CAAAGGUAAACACAGAUUGUAUCUUUUUUAAUGGUACGGCAUAAAAAAAUAACCCUAAAGUGAAGUGGCUCUAUACUGUUUUAUAGAGUACUUUAACGUGUAUAGAUAUC | 0.409
AGGGAAUUAGGCAGAACAGAUUUCUAGGUUGGGUAGGCCACUGCAUUCUCUUUUGUUUGCAAAUUGGUCAACAAAAUUUGCAAAGUGAUUUCAGGAGAGAGCAGCUUUGA | 0.54
UUGAUAAUAAAUUAUACACUAUGAAACCGCCAUUGGGCUACUGUAGAUUUGUAUCCUUGAUGAAUCUGGGGUUUCCAUCAGACUGAACUUACACUGUAUAUUUUGCAAUA | 1.51
UUCAGUUUUCUGUUGGGAUCAGAGUGAGGAUACUUCCAUAUGGGUGAUAGCAGCCAUGCCCCUGGGAGUCAACUUCAAGGAUCUGGGACAUUUUGGUGUGCCCAUUCCUU | 0.237
AUCCAUGUAGGAAAGUAAAAUGGAAGGAAAUUGGGUGCAUUUCUAGGACUUUUCUAACAUAUGUCUAUAAUAUAGUGUUUAGGUUCUUUUUUUUUUCAGGAAUACAUUUG | 0.601
AGACCAAGAACCAUGAUCAUUGCCUGCUGAAUCGGCCAGGGCCUGGCCACUCUGUGAAUACAUGAUCUUGCAAUGUUGGGUUAUUCCAGCCAAAGACAUUUCAAGUGCCU | 0.488
UUAGCACAGAUUUUAAUUGUCAUGGUUACAAACUACAGACCUGCUUUUUGAAAUGAAAUUUAAACAUAAAAAUGGAACUGUGUUCUCUGUCUCUUUACUGAAGAUAAAGG | 0.453
UGUCUUGUGUGUGGUACCUUGGGCAAGUUACUAACUCCCUCUGUAAAGUAGAGACGAUGGGGACUGUCUCACUGUGACAAGGUAAGAUUUAAGUGAGAUGCACACAAAAA | 1.98
UACAAGAGCAGAAUAGUACUUAAAAUCCAAACUGCCGCCCAGAUGGGCUUGUUCUUCAUGCCUAACUUAAUAAUUUUUAAGAGAUUAAAGUGCCAGAUGGAGUUUAAAUA | 0.314
CAGGGUUUCGGGUUUCACCAUGUUGGCCAGGUUGAUCUUGGACUCCUGACCCCAGGUGAUCCACCUGCCUCAGCCUUCCAAAGUGCUGGGAUUACAGGCAUGAGCCACCG | 0.291

Series 3
Target: Sal-like protein 4, full length isoform A (SALL4, Homo sapiens, UniProt Q9UJQ4, residues 1-1053)
UniProt Q9UJQ4, sequence (whole entry, looked up): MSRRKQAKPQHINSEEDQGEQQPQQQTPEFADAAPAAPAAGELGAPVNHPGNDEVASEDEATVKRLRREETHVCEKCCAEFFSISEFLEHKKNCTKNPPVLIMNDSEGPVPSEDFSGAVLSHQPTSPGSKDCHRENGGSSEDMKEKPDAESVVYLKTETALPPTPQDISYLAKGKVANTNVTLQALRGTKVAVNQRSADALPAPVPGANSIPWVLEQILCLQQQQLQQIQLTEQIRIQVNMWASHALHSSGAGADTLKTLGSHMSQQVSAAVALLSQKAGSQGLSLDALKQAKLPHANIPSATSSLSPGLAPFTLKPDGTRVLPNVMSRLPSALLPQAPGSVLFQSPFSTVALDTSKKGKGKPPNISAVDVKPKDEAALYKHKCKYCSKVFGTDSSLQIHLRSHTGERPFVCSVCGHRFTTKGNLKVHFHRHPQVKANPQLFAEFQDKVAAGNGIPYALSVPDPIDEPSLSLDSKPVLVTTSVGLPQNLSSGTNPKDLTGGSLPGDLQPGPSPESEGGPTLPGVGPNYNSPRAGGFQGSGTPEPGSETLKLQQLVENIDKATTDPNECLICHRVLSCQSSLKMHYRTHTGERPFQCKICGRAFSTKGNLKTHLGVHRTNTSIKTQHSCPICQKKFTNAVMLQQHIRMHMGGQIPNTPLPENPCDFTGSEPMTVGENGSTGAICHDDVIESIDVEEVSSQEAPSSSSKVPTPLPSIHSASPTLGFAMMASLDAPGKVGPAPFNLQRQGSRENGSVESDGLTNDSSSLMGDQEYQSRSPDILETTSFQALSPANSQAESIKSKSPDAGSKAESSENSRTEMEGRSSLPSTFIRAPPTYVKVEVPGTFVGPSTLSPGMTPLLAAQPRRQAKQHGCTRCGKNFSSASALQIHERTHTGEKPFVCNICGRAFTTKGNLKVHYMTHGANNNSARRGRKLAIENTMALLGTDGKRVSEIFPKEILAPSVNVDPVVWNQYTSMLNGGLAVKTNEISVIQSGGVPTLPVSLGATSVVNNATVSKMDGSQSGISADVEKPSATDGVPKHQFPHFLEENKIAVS
Method: universal PBM
Form: double-stranded DNA, one strand shown
Matrix: in vitro
Concentration: 600 nM
Setting: 8-mer, flanks averaged, mean of replicates
Reading: higher = stronger binding
Strand | E-score
AAACGAAT | 0.261
TCCGATCA | 0.0297
CTCAAATA | 0.247
ACTACAAG | 0.157
CTAACCAC | -0.0101
ACCTGTGC | -0.0183
CAACGCTA | -0.114
TGACTGAA | 0.0539
ACACACAA | 0.177
CTCTATAA | 0.329
ACAGGGAA | -0.133
CCGGTCAC | -0.29
CTGTGTCC | -0.149
AAGGGGCT | -0.0938
ATGGCAGG | -0.0543
CATAGAAA | 0.232
ACCCTTCC | -0.0379
GATCATCA | 0.0063
ACTGTGAC | -0.0288

Series 4
Target: RING finger protein unkempt homolog, zinc fingers 1-6, GST-SBP tag (UNK, Homo sapiens, UniProt Q9C0B0, residues 30-357)
UniProt Q9C0B0, sequence (30-357, looked up): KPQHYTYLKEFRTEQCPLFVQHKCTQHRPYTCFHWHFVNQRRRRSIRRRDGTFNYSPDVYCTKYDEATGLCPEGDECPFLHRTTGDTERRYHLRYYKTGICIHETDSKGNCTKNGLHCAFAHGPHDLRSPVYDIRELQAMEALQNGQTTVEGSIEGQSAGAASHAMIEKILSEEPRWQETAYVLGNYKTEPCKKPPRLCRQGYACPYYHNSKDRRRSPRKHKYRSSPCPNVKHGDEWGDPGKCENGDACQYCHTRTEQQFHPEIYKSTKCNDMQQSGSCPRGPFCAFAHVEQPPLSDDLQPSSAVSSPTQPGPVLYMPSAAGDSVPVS
Method: RNA Bind-n-Seq
Form: RNA
Matrix: in vitro
Concentration: not given
Setting: RNA with constant flanks, ends assumed
Relative to: input RNA pool
Reading: higher = stronger binding
Shared flanks, not repeated: GGGAGUUCUACAGUCCGACGAUC … CAACAGAGGAUUGAGCAUCA
Strand | bound/input enrichment
UUGGAAGUGUAUCCUCCCUUCUUAUUUUUUCUAGCUGUUGGAGGUGUUUACCACCCGCGUACCGCUUCUGGCCUGGGCUUGGCCUGGAUUGUUGGACGAGUUCUUUAUGCUUAUGGCUAU | 0.615 ratio
GAACACAGUAUGUAGGUCAAACUGGCAGUAACAGUGUACAGCCUUUGACAAACUAGAAAUAUCCGAGCCGGCCAAACACACCUCCAAACUGUAAGGCUGUGCACAAACAUAAAAAAUGGC | 0.616 ratio
GCUCUGACUGUAUAGAGAGGGGUGUGCACAUAUGUCCCCACCCUCCGGUCUUCCUUUCCUUUCCGGGUGACACUACAGAGUCAUUCAGCCAAAUCCGUCUACUGCCUCUCCUCCUCAGCC | 0.224 ratio
UGGCGGCGGCUUUGGCUCUGAGGGACAGGGGUAGUGUUCCUGGUUUUGGUGGGGUUUGCCUUCCGUUUAAUUUUCCUUUUCUAGCUUCCCUUUGCCGGCUGGUGCGUACGUUGUAGUCCC | 0.887 ratio
CUCAUGCCUUCCAGUCUGCAGACCCCUCAGACCCAGGAGCAGAAUGGGAUUCUAGACUGGCUCCGGAAACUGCGUUUGCACAAGUAUUACCCCGUCUUUAAGCAGCUCUCCAUGGAGAAG | 0.123 ratio
AAUCCACCUUACAGAGAGGAAGACAUACCAGCUCCCCUAAAUUUGUAUGGCAAAACAAAAUCCGAUGGAGAAAAGGCUGUCCUGGAGAACAAUCUAGGAGCUGCUGUUUUGAGGAUUCCU | 0.116 ratio
UCCCUUUAUCCACAGUUUAUGUUUCAUUUAAGAAGAUCUUCUUUCCUGCAAGUUUUUAACAACCGUCCUGAUGAGAGUUCAUAUUAUCGUCACCAUUUUAUGCGUCAAGAUCUGACCCAG | 0.616 ratio
UAGCCAAGGUUUUUACAAAGGGGAAAGGAAAAGAAAACAAAAACGCAAGCUCCAUGUGUACCGCUGAACUUUUAUAUGUUUCUUGCCAGCCCCUCCGCUCCCUUCCAUCUCUAGCCUCUG | 0.231 ratio
CCUGCCUCAGCCUCCCAAGUAGCUGGUACUACAGGUGCGUGCCACCACACCUGGCUUAUUUCCGUUAUUUUAGUAGAGAUAGGGUUUCACCAUGUUGGCCAGGCUGGUCUCGGAACUCCU | 0.457 ratio
GCUUACAAAAUCAAAUACCCGGAGAACUUCUUUCUUCUAAGAGGAAACCAUGAGUGUGCCCGCAUCAAUCGCAUUUAUGGAUUCUACGAUGAGUGUAAACGAAGAUUUAAUAUUAAAUUG | 0.299 ratio
AAGAUCUCUGAUGAUCUGAUGCAGAAGAUCAGUACUCAGAACCGCCGGGCCCUAGACCUUGCCGCCGCAAAGUGUUACUAUUAUCACGCCCGGGUCUAUGAGUUCCUGGACAAGCUGGAU | 0.151 ratio

Series 5
Target: CCNB2, cyclin fold, Cln2 fusion (human)
Method: yeast growth competition, sequencing
Matrix: yeast
Setting: weak parent motif
Relative to: not given
Reading: higher = stronger binding
Starting sequence: RBL2 docking peptide (human); STTRRRLFVENDS; partner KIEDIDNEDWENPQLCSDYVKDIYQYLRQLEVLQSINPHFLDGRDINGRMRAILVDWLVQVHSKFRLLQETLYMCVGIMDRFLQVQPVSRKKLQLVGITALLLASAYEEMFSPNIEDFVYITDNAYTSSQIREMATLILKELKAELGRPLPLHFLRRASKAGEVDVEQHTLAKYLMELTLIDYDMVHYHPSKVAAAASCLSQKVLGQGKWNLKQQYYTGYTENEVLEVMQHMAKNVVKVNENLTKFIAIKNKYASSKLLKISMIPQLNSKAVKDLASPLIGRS
Substitution | normalised enrichment score
SQTRRRLFVENDS [T2Q] | 0.114
STTRRRLAVENDS [F8A] | 0.00227
STKRRRLFVENDS [T3K] | 0.368
STTRRRLFVENDE [S13E] | 0.891
STTRRRLFVEEDS [N11E] | 0.42
STTRRRLRVENDS [F8R] | 0.357
STTRRRLFVENYS [D12Y] | 0.47
STTRRILFVENDS [R6I] | 0.0221
STTRRRLFPENDS [V9P] | -0.265
STTRRRLFVENDN [S13N] | -0.0318
STTRRRLFVEPDS [N11P] | 0.596
STTRRRLFVEQDS [N11Q] | 0.477
STTRRRLFVENVS [D12V] | 0.0767
STQRRRLFVENDS [T3Q] | 0.0942
STTRRRYFVENDS [L7Y] | -0.0799
STTRRKLFVENDS [R6K] | 0.74
STTRRRLFVENDH [S13H] | 0.0964
STTDRRLFVENDS [R4D] | -1.06
STPRRRLFVENDS [T3P] | 0.431
SFTRRRLFVENDS [T2F] | -0.517
STTRNRLFVENDS [R5N] | 0.0548
SCTRRRLFVENDS [T2C] | 0.154
STNRRRLFVENDS [T3N] | 0.0466
STTRRRLFVTNDS [E10T] | 0.066
STTRRRLWVENDS [F8W] | 0.318

Some of these lines once more (series 3):
Strand | E-score
ACCCTTCC | -0.0379
CTAACCAC | -0.0101
CATAGAAA | 0.232
ACAGGGAA | -0.133
TGACTGAA | 0.0539
AAACGAAT | 0.261
CCGGTCAC | -0.29
ACTACAAG | 0.157
CTGTGTCC | -0.149
CTCAAATA | 0.247
ATGGCAGG | -0.0543
GATCATCA | 0.0063
